Assay results from different studies.
A part holds a random share of what one study measured. Substitutions count along the parent as printed.

Block 1
Target: Interferon regulatory factor 7, full length, phosphomimetic (IRF7, Homo sapiens, UniProt Q92985, residues 1-503, S471D/S472D/S475D/S476D/S477D/S483D/S484D/S487D)
Technique: protein-binding microarray
Form: double-stranded DNA, one strand shown
Matrix: in vitro
Concentration: 2200 nM top
Setting: 60-bp whole probe
Added: salmon DNA 0.4 mg/ml
Relative to: random background probes
Reading: higher = stronger binding
Constant ends, left off below: GCCTAGCAC … GTCTTGATTCGCTTGACGCTGCTG
Target sequence (chain): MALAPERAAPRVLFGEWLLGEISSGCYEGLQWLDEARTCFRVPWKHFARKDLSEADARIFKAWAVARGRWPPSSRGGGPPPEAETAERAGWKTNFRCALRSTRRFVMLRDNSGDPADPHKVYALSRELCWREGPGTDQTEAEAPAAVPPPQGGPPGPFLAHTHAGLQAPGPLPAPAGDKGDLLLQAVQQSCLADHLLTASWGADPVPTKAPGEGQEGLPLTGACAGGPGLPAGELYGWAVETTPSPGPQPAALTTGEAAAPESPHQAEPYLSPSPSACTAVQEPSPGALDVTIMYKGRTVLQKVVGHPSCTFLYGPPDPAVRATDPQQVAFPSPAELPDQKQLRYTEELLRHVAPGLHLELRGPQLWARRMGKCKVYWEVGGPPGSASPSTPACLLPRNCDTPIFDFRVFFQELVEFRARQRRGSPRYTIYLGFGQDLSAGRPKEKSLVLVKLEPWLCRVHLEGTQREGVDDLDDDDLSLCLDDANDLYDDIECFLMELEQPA
Sequence	fitted relative affinity [z-score]
TTAGGTTTGCTTTCCCTTTAGTGCTAG	4.79
CCACATCTCTGTCCGTGCTCGTGCTAG	1.86
TACGAACTGAGTATCGAGACGTGCTAG	-0.0369
TTAGGTATTGACTATCGGTTAGTGCTA	0.103
TCCAAATTGTCTCTGTCCCTGTGCTAG	1.39
GACGAACTGAGACTGGAGGCGTGCTAG	-0.428
ATATACCTGAATATCTTCAGGTGCTAG	0.579
GACCATTCCAGTTTCGAGACGTGCTAG	4.21
TTAGGTTTCGCACTGGGTTAGTGCTAG	3.2
TTAGTACTGGACTTTCGGTTAGTGCTA	5.51
TCAAGTTCATGTTTTGGACTGTGCTAG	0.546
CCCGCTTTTTTTTTTTTTTTGTGCTAG	1.69
TTAGGTATCAGTCTCGATTAGTGCTAG	0.374
TTAGCTTTCGGGTTTCGATTAGTGCTA	10.3
TCAGTTCTCTTTTATTTACTGTGCTAG	2.33
TCATGCTTGTGTTTATTACTGTGCTAG	1.16
TAAGGAGGCAGGGATGCTCCGTGCTAG	-1
TTAGAACTGGGGTTTCGCTTAGTGCTA	1.75
ATAGAACTGAGTATCGATTAGTGCTAG	0.107
GACGATATCAGATTCGAGACGTGCTAG	0.763
TCCTCTTTACTGCTCCACACGTGCTAG	2.41

Block 2
Target: PABPC1L2, full length, GST fusion (mouse, UniProt A0ABA7IW68)
Technique: RNAcompete
Form: RNA
Matrix: in vitro
Concentration: 20 nM
Setting: 7-mer, probes averaged, single round
Relative to: mean of 7-mers
Reading: higher = stronger binding
Construct (chain): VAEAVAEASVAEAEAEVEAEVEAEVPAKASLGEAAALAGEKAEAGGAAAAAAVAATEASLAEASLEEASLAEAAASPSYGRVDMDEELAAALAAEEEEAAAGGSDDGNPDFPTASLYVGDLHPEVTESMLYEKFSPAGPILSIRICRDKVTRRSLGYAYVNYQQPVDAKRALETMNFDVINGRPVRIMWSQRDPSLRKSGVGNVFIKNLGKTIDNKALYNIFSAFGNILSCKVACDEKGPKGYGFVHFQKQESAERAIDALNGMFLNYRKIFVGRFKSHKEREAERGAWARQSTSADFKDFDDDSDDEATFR
Sequence	7-mer Z-score
CGGGAGA	-0.0826
GUCAACU	-0.293
GUUUGGU	-0.429
UCUGUAG	-0.267
GGGUGGG	0.244
CCUGUCG	-0.322
GCGGUCC	-0.195
CUAAUUU	-0.282
GGCCUCU	-0.258
AUUUUGG	-0.162
AGCAACG	-0.021
GUUACUC	-0.289
AUUGAAU	-0.0627
GUUCUUC	-0.465
GGUACUU	-0.117
UCGUCAG	-0.354
GAGACUA	0.0768

Block 3
Target: RNA binding protein fox-1 homolog 2, RRM domain, GST-SBP tag (RBFOX2, Homo sapiens, UniProt O43251-10, residues 100-194)
Technique: RNA Bind-n-Seq
Form: RNA
Matrix: in vitro
Concentration: 365 nM
Setting: natural RNA segment, single round, ends assumed
Relative to: no-protein control
Reading: higher = stronger binding
Constant ends, left off below: GGGAGUUCUACAGUCCGACGAUC … UGGAAUUCUCGGGUGCCAA
Residues (chain): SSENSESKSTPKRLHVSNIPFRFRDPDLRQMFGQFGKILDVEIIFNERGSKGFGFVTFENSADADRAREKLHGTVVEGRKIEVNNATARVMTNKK
Sequence	RBNS enrichment (R)
AUUUUAGCCAUUUUGUCGCCUGCACCCACUCCCUUCAUACAAUCUAGUCAGAAUAGCAGUUCUAGAGCACAGGUUCUCAGUCUAAGCUAUGGAAAAGCUCCCCUUAUCCA	0.415
AGUGGGAGCUCAUGGGUGACAGUAAAACUUAGGUGUCUCAGAACUUAACAUUUAGUAAAGUGAUGUAGAUCCAAUGUCAGGAAAGGAAGGACUGUGUUACUGUGCCUCCU	0.367
GGAAGAUCCUCUUUCCAGGCCUCUCUAACCAAGUCUCAAAUAUCCAGGCAGAGUUUUAGUAUGACAUUGUGUGAUGAAUGCAAAUCAACACACAGAAUAAAUGGCUCUUU	0.494
AGUCAUGUAAUUGCACAGGACAAGGAGGUCAGCGUGUGUGAUGGCAGCAUGCUGUGCCGGCACAUCGUGGAGUCCUAGAAACUCUCUAGUCCCUGCGGCUGUUCCCCUCC	17.3
UGAUAUAACCCUUUGCUUCUUAUAAUGAGUGCGAUAUAUGUUGUCGAGGCUGUUCUUCAAGAAUUAAAAUUGAAGUGAAAAUUUAAACAAAAAUAAAAGAAUUUAGCAAA	1.18
UGCAUCGGAGGCCAGGACCCGGAUCAUUCACUGUGAUACCCUGCCCUCCAGAGGGUGCGCUCAGAGACACGGGCAAGCAUGCCUCUUCCCUUCCCUGGAGAGAAAGUGUG	0.732
GCUCCUGUAUUUCUGUGUUCCUCGGCCCUCUUGUCUGCCCAUUUCGUGUCCAGAGAGGGACAGGGUCUCAUUGUCACCCUCCAAAUACAUAAAGGCUGGUUCAGAAUGUU	0.319
UCUUCCAGCCAAAACGGGAAAAGUGGCUGACUUCACUGCAUUAGAAGAGGAAAAGUCCAACUCCUUAGGGAGUCUGAGCCUGGCACGGGCUUGGGGAAAGAAGGCUGCAG	0.595
AUUCAUUCACGUGGCCUCUGCUCCUGUGUGGUCUGAGCAGGCUUCAUCUCUGUUUCUCUCAAGGCGUGUGCUUGGGCAGCUUGAGGUGAGGUUUUUCCUUCCCUGUGAAG	0.707
GUAAUAUUCAGUAAUAAAUGUCAUCAGGUGAUGACUGGAUGAGCUGCUGAAGACAUUCGUAUUAUGUGUUAGAUGCUUUAAUGUUUGCAAAAUCUGUCUUGUGAAUGGAC	5.15
GCACUGGCAGUUGGUGGCAGUGAGACCAGCCCACCCACCACCACCCACCACAGAAAAGCACAAACCUCUGGGAAAGACAACGUCUCUCGGGGGCCAGGGGUCAUCGGUUU	0.54
UUUUGACUAAUUAGAAAUUCAGGCUGCUUGGGAUAAUGAGACAAGGACCAGAACCUCCUCCCCACCUGUGGCCUGGCCAAAACCCCCACUUGUGGUCUGAAUGUUCUCCU	0.432

Block 4
Target: RING finger protein unkempt homolog, zinc fingers 1-6, SBP tag (UNK, Homo sapiens, UniProt Q9C0B0, residues 30-357)
UniProt Q9C0B0, sequence (30-357, looked up): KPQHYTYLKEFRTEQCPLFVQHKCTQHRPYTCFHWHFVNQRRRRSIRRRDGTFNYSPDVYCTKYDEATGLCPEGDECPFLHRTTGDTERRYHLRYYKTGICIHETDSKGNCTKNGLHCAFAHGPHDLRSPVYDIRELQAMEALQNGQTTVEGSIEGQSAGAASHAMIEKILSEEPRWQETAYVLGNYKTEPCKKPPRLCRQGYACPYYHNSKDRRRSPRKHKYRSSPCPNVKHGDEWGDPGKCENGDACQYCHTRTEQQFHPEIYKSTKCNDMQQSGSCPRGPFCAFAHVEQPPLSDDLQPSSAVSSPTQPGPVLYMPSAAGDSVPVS
Technique: RNA Bind-n-Seq
Form: RNA
Matrix: in vitro
Concentration: 100 nM
Setting: RNA with constant flanks, vertebrate orthologous sites, ends assumed
Relative to: input RNA pool
Reading: higher = stronger binding
Constant ends, left off below: GGGAGUUCUACAGUCCGACGAUC … CAACAGAGGAUUGAGCAUCA
Sequence	bound/input enrichment [ratio]
GCGGGGAUGGCCCGAUCCCACCGCUGUUUAUUCUGUAAACUUCAACCUGUACAUAAUGUUUAGCAUUCCUAUUGUAACAAAAUUAAUUUUUACAAAAUAAAUUAUAUUUCCUAGUCUAAU	0.899
UACCUGUGUACAUUUCAUUCACAACACUGAAUGCAAAGUAGCGAUUUCCAUAGUCACAAAAUAAUGUAGCUUUAGGGCGAUAUCACCAUGGGUUUUACUCAUGUGCAGGUCUUGAAAAUG	0.583
GAAGAUGGUGGUUGUACAUUAUUCAUUUAGAAAAUACAAAACUUCGUUUUGUUUUGAAGCUAGGUAUUAAUUGGAAUAGCUAUUAUACCUGAGAGUGGAGCAGCUGUGCCCUUCCUUUGA	1.04
AAUCAAUAGAAUUUCACAAUACUAAAGUUGCAGUUGAAAGGAUAUUCAAGUAUGUGUUGGUAGUUACUAAAAGAAUUAUAGCUGUUAUUGCCUUGUAUUUAUAGCCCUUGUUUCAGGUUU	0.997
AAAUUUAUUUUAUGCCCUGGACUCCCUACCGCACUGAUACUUUAAUUGAAUUUGCUUCUUUAGAGGAUUUCCAAAACAGUCGCCAAACAACAACAUACAAACUACCAAACCGAGUAGAUG	1.08
AACAUGGUGGUUGUACAUUAUUUCAUUUAGAAAAUAUAAACUUUAAUUUUGUUUUGAAGUUAGGUGUUAAACUGGAAUAGUUAUCAUACCCCAGAUAAUGGGGCAGUUGUGCCCUUCCCU	2.37
GAUGAUGAUGAUGAUGAUGAUAAACAUUCUUACAUAUUUAUUGAAUGUUUAUAAGUUGUUCUCCCCUGACCCCGUAUCAAUUUUAUAUGUUUUGAAUUUUUGGAAAUGACCAUGUAUCUU	0.432

Block 5
Target: CCNA1, cyclin fold, Cln2 fusion (human)
Technique: yeast growth competition, sequencing
Matrix: yeast
Setting: weak parent motif
Relative to: not given
Reading: higher = stronger binding
Starting sequence: RB1 docking peptide (human); PKPLKKLRFDIEG
Change	normalised enrichment score
R8W	0.126
K6F	0.284
K2I	0.567
K2L	0.423
P3Y	0.38
F9H	0.225
K5W	-0.0437
L7Y	-0.06
F9N	0.884
P1L	0.00604
L7G	0.193
G13V	0.139
K6S	0.415
P1K	0.173
K2Q	0.183
L4Y	0.569
L4A	0.393
R8D	0.0136
